Assay results of several laboratories.
Compare with care: the assays were run in different laboratories. Values joined by “and” are separate records of one study, mostly repeats; a detail may differ. Numbers after ± are the reported error.

For COc1ncccc1-c1cnn2ccc(N3CCN(C(=O)OC(C)C)CC3)nc12, the drug concentration was 3.7 µM (rat, CCI cold allodynia model, brain; oral, 10 mg/kg, 240 min).
O=C(C1CCSCC1)N1CC(=O)N2CCc3ccccc3[C@@H]2C1: “Cmax of (R)-enantiomer” 3.3 µM (NMRI mouse, female, S. mansoni-infected, plasma; oral, 200 mg/kg).
CN1CC[C@@H](c2c(O)cc(O)c3c(=O)cc(-c4ccc(C(F)(F)F)cc4Cl)oc23)[C@@H]1CO: “patients with adverse event” 0% (item: Epistaxis; B-cell malignancies; oral, 200 mg, intermittent dosing).
CCCCCCCCCCCCCCCC(=O)N[C@@H](CCC(=O)NCCCC[C@H](NC(=O)[C@H](CC(=O)O)NC(=O)[C@H](CO)NC(=O)[C@@H](NC(=O)[C@H](Cc1ccccc1)NC(=O)[C@@H](NC(=O)CNC(=O)[C@H](CCC(N)=O)NC(=O)[C@H](CO)NC(=O)[C@@H](N)Cc1c[nH]cn1)[C@@H](C)O)[C@@H](C)O)C(=O)N[C@@H](CO)C(=O)N[C@@H](CCC(=O)O)C(=O)N[C@@H](Cc1ccc(O)cc1)C(=O)N[C@@H](CC(C)C)C(=O)N[C@@H](CC(=O)O)C(=O)N[C@@H](CO)C(=O)N[C@@H](CCC(=O)O)C(=O)N[C@@H](CCCNC(=N)N)C(=O)N[C@@H](C)C(=O)N[C@@H](CCCNC(=N)N)C(=O)N[C@@H](CC(=O)O)C(=O)N[C@@H](Cc1ccccc1)C(=O)N[C@H](C(=O)N[C@@H](C)C(=O)N[C@@H](Cc1c[nH]c2ccccc12)C(=O)N[C@@H](CC(C)C)C(=O)N[C@@H](CCC(=O)O)C(=O)N[C@@H](C)C(=O)NCC(=O)NCC(=O)O)C(C)C)C(=O)O: “treatment-related adverse events” 33.3% (item: Nausea; humans CrCl below 20 mL/min; subcutaneous, 100 µg single dose).
For CCc1ccc(CC/C=C/c2ccc3c(c2)C(=O)CC3)cc1, the Calcium was 2.45 mM (Sprague-Dawley rat, male; oral, 450 mg/kg/day, 14 days).
Under “blood bilirubin increased incidence”, CCN1CCN(Cc2ccc(Nc3ncc(F)c(-c4cc(F)c5nc6n(c5c4)[C@H](C)CCC6)n3)nc2)CC1 is recorded as 0% (Phase Ia dose escalation; patients with advanced solid tumours; dose not given, monotherapy, grade ≥3).
[O-][S+]1CCc2nc(N3CCC(c4ncc(Cl)cn4)CC3)nc(NC3(CO)CCC3)c21 (stereo not shown) — result for “adverse event incidence”: 0% (item: Nausea; healthy male humans; single dose, all groups).
For N=C(CC(O)c1cc2c(F)cc(F)cc2c2cc(C(F)(F)F)ccc12)Nc1ccc(F)c(F)c1 (stereo not shown), the blood-to-plasma ratio was 1.12 ± 0.05 (human blood; 50 ng/mL, 30 min).
For O[C@H]1CCCN[C@@H]1CCCn1cnc2c(Cl)c(Cl)ccc21, “AUCtau geometric LS mean” read 1280 ng·h/mL (healthy volunteers, plasma; oral, 150 mg twice daily, added: pirfenidone 600 mg).
For CCN1[C@@H](C(=O)NC23CCC(C(=O)O)(CC2)CC3)[C@H](c2cccc(Cl)c2F)[C@]2(C(=O)Nc3cc(Cl)ccc32)C12CCCCC2, “ALT elevation incidence” read 0% (patients with advanced solid tumours; oral, 100 mg).
c1csc(CNc2cc[nH]n2)c1: “PCE to total erythrocyte ratio” 0.471 (micronucleus; CD-1 mouse Hsd:ICR(CD-1), female, bone marrow; oral, 1000 mg/kg/day, 3 days).
For Cc1cccc(Cn2nc(C3CC3)c3c(NC(=O)c4cnc5cc(OCCN6CCN(C)CC6)ccn45)cccc32)n1, “adverse events incidence” read 21.1% (item: Vomiting; human advanced solid tumours; oral, dose not given, all-causality,, all doses).
With O=C(c1ccc(Cl)cc1)N1CCN2C(=O)N(OC(=O)N3CCOc4ccccc43)C(=O)C2C1 (stereo not shown) the median ratio was 1.12 (Dipeptidyl peptidase 2 (Homo sapiens, UniProt Q9UHL4); enzyme activity, inhibitor, MS-based ABPP; SW-620 in situ; 10 µM, 2 h, 37 °C; reference: compound over DMSO, lower = stronger inhibition).
CC[C@H](C)[C@H](NC(=O)[C@H](CCCCN)NC(=O)[C@H](CCC(=O)O)NC(=O)[C@H](CCCCN)NC(=O)[C@H](CO)NC(=O)[C@H](CCCCN)NC(=O)[C@H](CCCNC(=N)N)NC(=O)[C@H](Cc1ccccc1)NC(=O)[C@H](Cc1ccccc1)NC(=O)[C@H](CC(=O)O)NC(=O)CNC(=O)[C@H](CC(C)C)NC(=O)[C@@H](N)CC(C)C)C(=O)NCC(=O)N[C@@H](CCCCN)C(=O)N[C@@H](CCC(=O)O)C(=O)N[C@@H](Cc1ccccc1)C(=O)N[C@@H](CCCCN)C(=O)N[C@@H](CCCNC(=N)N)C(=O)N[C@H](C(=O)N[C@H](C(=O)N[C@@H](CCC(N)=O)C(=O)N[C@@H](CCCNC(=N)N)C(=O)N[C@H](C(=O)N[C@@H](CCCCN)C(=O)N[C@@H](CC(=O)O)C(=O)N[C@@H](Cc1ccccc1)C(=O)N[C@@H](CC(C)C)C(=O)N[C@@H](CCCNC(=N)N)C(=O)N[C@@H](CC(N)=O)C(=O)N[C@@H](CC(C)C)C(=O)N[C@H](C(=O)N1CCC[C@H]1C(=O)N[C@@H](CCCNC(=N)N)C(=O)N[C@H](C(=O)N[C@@H](CCC(=O)O)C(=O)N[C@@H](CO)C(=O)O)[C@@H](C)O)C(C)C)[C@@H](C)CC)C(C)C)[C@@H](C)CC — result for “remaining intact peptide”: 18.7% and 17.5% and 10.9% (LC-MS; 50% pooled human serum; 40 µM, 10 min, pH 7.5, 37 °C; reference: 0 h).
For COc1ccc2nc3cc(Cl)ccc3c(Nc3cc(CN4CCCC4)c(O)c(CN4CCCC4)c3)c2n1, “mean corpuscular haemoglobin concentration” read 377 g/L (mouse, blood; intraperitoneal, 28 mg/kg).
CC(C)C[C@H](NC(=O)[C@H](CCCCN)NC(=O)OCC1c2ccccc2-c2ccccc21)C(=O)N[C@H](C(=O)N[C@@H](Cc1ccccc1)C(=O)N[C@@H](Cc1ccccc1)C(=O)N[C@@H](CCCCN)C(=O)NCC(=O)N[C@@H](Cc1ccccc1)C(=O)N[C@@H](C)C(=O)N[C@@H](Cc1c[nH]c2ccccc12)C(=O)N[C@@H](CC(N)=O)C(=O)N[C@H](C(=O)N[C@H]1CSSC[C@@H](C(=O)N[C@@H](Cc2c[nH]cn2)C(=O)N[C@@H](CCCNC(=N)N)C(=O)N[C@@H](CCCNC(=N)N)C(=O)N[C@@H](C)C(=O)N[C@@H](CC(N)=O)C(N)=O)NC(=O)[C@H](C(C)C)NC(=O)[C@H](CCCNC(=N)N)NC(=O)[C@H](C(C)C)NC(=O)CNC(=O)[C@H](CC(N)=O)NC(=O)[C@H](CCCNC(=N)N)NC(=O)[C@H](Cc2ccc(O)cc2)NC(=O)[C@H](C(C)C)NC1=O)C(C)C)C(C)C has a tremor score of 0 (ICR mouse; ip, 5 mg/kg; direction not given).
For C[C@H]1C[C@@H](N2C(=N)N[C@](C)(c3cccc(NC(=O)c4cccc(C#N)c4)c3Cl)CC2=O)CCO1, the ALAT change was 53% (rat; 1000 mg/kg, every other day).
COc1cc2c(Oc3ccc4[nH]c(C)cc4c3F)ccnc2cc1OCC1(N)CC1 — result for “mouth ulcer incidence”: 0% (paediatric refractory sarcoma patients; 10 mg).
O=C(Nc1ccccc1)C1CCN(C(=O)Oc2cccnc2)CC1: “adverse event Nausea” 0% (healthy women; oral, 20 mg, 7 days).
Under “patients with adverse events”, Nc1nc2cc(-c3ccc4ncc(C(=O)N5CCOCC5)n4c3)ccc2o1 is recorded as 3% (all-cause decreased appetite, grade ≥3; patients with advanced solid tumours; dose not given).
C[C@]1(CO)Cc2ncn(-c3ccc(C#N)c(Cl)c3)c2C(=O)O1 has a Cmax of 1.09 µM (human, Chinese, plasma; 20 mg single dose, geometric mean).
Under “participants with adverse event”, COc1ccc(C[C@@H]2NC(=O)[C@H]([C@@H](C)O)NC(=O)[C@@H]3[C@@H]4CCN3C(=O)[C@@H]3Cc5cn(c6ccc(F)cc56)CCCCCCN(Cc5ccc(cc5)CCNC(=O)[C@]5(C)CCCN5C2=O)C(=O)CCC(=O)N[C@@H](C)C(=O)N[C@H](CNC(=O)CCCCC[N+](C)(C)C)C(=O)N[C@@H](Cc2cccc(c2)CNC(=O)CO4)C(=O)N3)cc1 is recorded as 3.2% (item: abnormal dreams; human; dose not given).
For Cn1cncc1-c1c(F)cncc1NC(=O)c1c(N)nn2cc(F)cnc12, “grade ≥3 creatinine increased” read 0% (human patients; oral, 150 mg twice daily, 4 days per 3 days).
For Cn1c(-c2ccc(C(N)=O)cc2F)nnc1C(C)(C)Oc1c(F)cc(Cl)cc1F, “medical device site reaction TEAE” read 0% (human; oral, 1 mg, single ascending dose).
CCCCCOc1ccc(-c2ccc(-c3ccc(C(=O)N[C@H]4C[C@@H](O)[C@@H](OCC[N+](C)(C)C)NC(=O)[C@@H]5[C@@H](O)[C@@H](C)CN5C(=O)[C@H]([C@@H](C)O)NC(=O)[C@H]([C@H](O)[C@@H](O)c5ccc(O)cc5)NC(=O)[C@@H]5C[C@@H](O)CN5C(=O)[C@H]([C@@H](C)O)NC4=O)cc3)cc2)cc1 has a Cmin of 2310 ng/mL (adult patients not in ICU, plasma; intravenous, 400 mg loading dose, after first dose, median).
Under “dose-reducing adverse events”, CO[C@H]1C[C@@H]2CC[C@@H](C)[C@@](O)(O2)C(=O)C(=O)N2CCCC[C@H]2C(=O)O[C@H]([C@H](C)C[C@@H]2CC[C@@H](OC(=O)NCCOCCOCCOCCOCCOCCOCCOCCOCCC(=O)N3CCc4cc(Cn5nc(-c6ccc7oc(N)nc7c6)c6c(N)ncnc65)ccc4C3)[C@H](OC)C2)C[C@@H](O)[C@H](C)/C=C(\C)[C@@H](O)[C@@H](OC)C(=O)[C@H](C)C[C@H](C)/C=C/C=C/C=C/1C is recorded as 0% (phase 1 dose escalation, item: mucositis; advanced solid tumour patients; intravenous, 6 mg weekly, grade ≥3).
For CC[C@H](C)[C@H](NC(=O)[C@H](Cc1ccccc1)NC(=O)[C@H](CCC(=O)O)NC(=O)[C@H](CCCNC(=N)N)NC(=O)[C@H](C)NC(=O)[C@H](C)NC(=O)[C@H](CCC(N)=O)NC(=O)[C@H](CCC(=O)O)NC(=O)[C@H](CCC(=O)O)NC(=O)[C@H](CC(C)C)NC(=O)[C@H](Cc1ccc(O)cc1)NC(=O)[C@H](CO)NC(=O)[C@H](CO)NC(=O)[C@@H](NC(=O)[C@H](CC(=O)O)NC(=O)[C@H](CO)NC(=O)[C@@H](NC(=O)[C@H](Cc1ccccc1)NC(=O)[C@@H](NC(=O)CNC(=O)[C@H](CCC(=O)O)NC(=O)[C@H](C)NC(=O)CCc1c[nH]cn1)[C@@H](C)O)[C@@H](C)O)C(C)C)C(=O)N[C@@H](C)C(=O)N[C@@H](Cc1c[nH]c2ccccc12)C(=O)N[C@@H](CC(C)C)C(=O)N[C@H](C(=O)N[C@@H](CCCNC(=N)N)C(=O)NCC(=O)N[C@@H](CCCNC(=N)N)C(=O)N[C@@H](CCCCNC(=O)COCCOCCNC(=O)COCCOCCNC(=O)CC[C@H](NC(=O)CCCCCCCCCCCCCCCCC(=O)O)C(=O)O)C(=O)NCC(=O)NCC(=O)N[C@@H](CO)C(=O)N[C@@H](CCCCNc1c(NCCCCCN(O)C(=O)CCC(=O)NCCCCCN(O)C(=O)CCC(=O)NCCCCCN(O)C(C)=O)c(=O)c1=O)C(=O)O)C(C)C [zirconium-89 labelled], the tissue uptake was 0.12 %ID/g (gamma counting; rat, stomach-duodenum content; subcutaneous, 3 nmol/kg, 24 h).
CC(C)n1c(C2CCNCC2)nc2c([N+](=O)[O-])c(Br)c(Br)cc21: “AE leading to discontinuation” 2% (patients with AML; 125 mg, respiratory distress).

For quick reference, copied from above:
Under “patients with adverse events”, Nc1nc2cc(-c3ccc4ncc(C(=O)N5CCOCC5)n4c3)ccc2o1 is recorded as 3% (all-cause decreased appetite, grade ≥3; patients with advanced solid tumours; dose not given).
[O-][S+]1CCc2nc(N3CCC(c4ncc(Cl)cn4)CC3)nc(NC3(CO)CCC3)c21 (stereo not shown) — result for “adverse event incidence”: 0% (item: Nausea; healthy male humans; single dose, all groups).
